{"data": "Measurements gathered from unrelated publications", "note": "Each numbered part is a random draw from the data of one study; scales do not carry over between parts."}
{"data": "Sample 1", "target": "Histone acetyltransferase KAT6A, winged helix 1, GST fusion (KAT6A, Homo sapiens, UniProt Q92794, residues 1-85)", "method": "protein binding microarray", "form": "double-stranded DNA, one strand shown", "matrix": "in vitro", "tested at": "not given", "setting": "8-mer, flanks averaged, mean of 2 arrays, mostly near background", "relative to": "not given", "reading": "higher = stronger binding", "Construct (chain)": "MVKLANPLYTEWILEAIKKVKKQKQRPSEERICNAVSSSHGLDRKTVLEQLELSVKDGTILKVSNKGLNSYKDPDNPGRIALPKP"}
{"Oligonucleotide": "AGTACGAA", "E-score": -0.132}
{"Oligonucleotide": "ACTCCGGG", "E-score": 0.111}
{"Oligonucleotide": "CGAATCGA", "E-score": -0.0743}
{"data": "Sample 2", "target": "Interferon regulatory factor 3, full length, phosphomimetic (IRF3, Homo sapiens, UniProt Q14653, residues 1-427, S386D/S396D/S398D/S402D/T404D/S405D)", "method": "protein-binding microarray", "form": "double-stranded DNA, one strand shown", "matrix": "in vitro", "tested at": "2540 nM top", "setting": "60-bp whole probe", "together with": "salmon DNA 0.4 mg/ml", "relative to": "random background probes", "reading": "higher = stronger binding", "Residues (chain)": "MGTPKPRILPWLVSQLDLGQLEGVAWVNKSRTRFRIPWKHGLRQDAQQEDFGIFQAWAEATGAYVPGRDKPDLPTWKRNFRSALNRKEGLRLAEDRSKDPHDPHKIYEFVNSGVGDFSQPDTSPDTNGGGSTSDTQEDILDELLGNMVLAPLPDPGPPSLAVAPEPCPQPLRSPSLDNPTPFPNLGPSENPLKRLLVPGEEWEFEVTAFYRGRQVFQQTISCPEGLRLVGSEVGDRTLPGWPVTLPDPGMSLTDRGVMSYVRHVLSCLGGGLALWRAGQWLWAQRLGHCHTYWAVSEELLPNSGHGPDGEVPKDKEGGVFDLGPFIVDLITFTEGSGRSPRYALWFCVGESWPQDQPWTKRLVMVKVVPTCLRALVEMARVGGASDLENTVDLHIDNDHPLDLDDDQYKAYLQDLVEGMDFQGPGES"}
{"Oligonucleotide": "GCCTAGCACCTAATTCTCTTTTCACTTTCGTGCTAGGTCTTGATTCGCTTGACGCTGCTG", "fitted relative affinity [z-score]": 3.2}
{"Oligonucleotide": "GCCTAGCACGACGAACTCAGTATCGAGACGTGCTAGGTCTTGATTCGCTTGACGCTGCTG", "fitted relative affinity [z-score]": 0.374}
{"Oligonucleotide": "GCCTAGCACGACGGTCTCGTTATCCTGACGTGCTAGGTCTTGATTCGCTTGACGCTGCTG", "fitted relative affinity [z-score]": 1.12}
{"Oligonucleotide": "GCCTAGCACGACGGACTGGGGTATAGGGACGTGCTAGTCTTGATTCGCTTGACGCTGCTG", "fitted relative affinity [z-score]": -0.725}
{"data": "Sample 3", "target": "Sal-like protein 4, full length isoform B (SALL4, Homo sapiens, UniProt Q9UJQ4-2, residues 1-616)", "method": "universal PBM", "form": "double-stranded DNA, one strand shown", "matrix": "in vitro", "tested at": "not given", "setting": "8-mer, flanks averaged, mean of replicates", "reading": "higher = stronger binding", "Residues (chain)": "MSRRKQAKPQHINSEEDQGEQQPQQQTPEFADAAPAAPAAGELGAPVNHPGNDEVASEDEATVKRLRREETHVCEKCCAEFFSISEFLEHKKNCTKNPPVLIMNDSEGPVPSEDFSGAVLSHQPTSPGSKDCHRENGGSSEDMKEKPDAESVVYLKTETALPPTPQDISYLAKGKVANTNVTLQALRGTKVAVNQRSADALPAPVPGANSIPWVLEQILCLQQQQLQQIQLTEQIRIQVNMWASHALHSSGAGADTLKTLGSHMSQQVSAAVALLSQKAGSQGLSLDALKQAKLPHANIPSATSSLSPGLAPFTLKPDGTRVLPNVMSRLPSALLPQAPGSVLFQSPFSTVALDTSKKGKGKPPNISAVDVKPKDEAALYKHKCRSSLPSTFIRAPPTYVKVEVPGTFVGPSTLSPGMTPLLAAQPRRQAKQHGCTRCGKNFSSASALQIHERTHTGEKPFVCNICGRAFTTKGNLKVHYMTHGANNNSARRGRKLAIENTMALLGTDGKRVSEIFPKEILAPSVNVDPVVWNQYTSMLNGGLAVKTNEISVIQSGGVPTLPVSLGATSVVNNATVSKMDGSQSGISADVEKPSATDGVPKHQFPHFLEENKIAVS"}
{"Oligonucleotide": "CGCGAACC", "E-score": -0.274}
{"Oligonucleotide": "ACGCAAGA", "E-score": -0.0241}
{"Oligonucleotide": "CCCATCGG", "E-score": -0.15}
{"Oligonucleotide": "ACGGCTGG", "E-score": -0.288}
{"Oligonucleotide": "AGTGGAAT", "E-score": 0.179}
{"data": "Single results of other studies"}
{"Substance": "PhoQ, residues 284 288 289 292 302 303 WVSSAF", "target": "PhoP, residues 12 14 15 18 19 SGWQI (Escherichia coli, UniProt P23836)", "test": "Sort-seq, refers to: YFP reporter", "test system": "E. coli", "setting": "PhoQ-PhoP variant library, together with: 10 µM Mg2+", "how to read": "relative to: high Mg2+ state, higher = stronger signaling", "endpoint": "fold induction", "result": 6.86}
{"note": "Repeated from above (sample 1):"}
{"Oligonucleotide": "CGAATCGA", "E-score": -0.0743}
{"Oligonucleotide": "ACTCCGGG", "E-score": 0.111}
